Experimental data gathered from unrelated publications.
Compare with care: the assays were run in different laboratories. Several values in a cell are separate wells, animals, samples, runs or records. Numbers after ± are the reported error.

With `O=C(/C=C/C=C/C=C/C1CCCCC1)NC1=C[C@@](O)(/C=C/C=C/C=C/C(=O)NC2=C(O)CCC2=O)[C@@H]2O[C@@H]2C1=O` the GI50 was 22000 nM (HCC95; cell growth, CellTiter-Glo; 78 h).
For `O=C(COc1ccc(Cl)cc1)NC12CC(c3nnc([C@H]4C[C@@H](OC(F)(F)F)C4)o3)(C1)C2`, “CHAC1 mRNA change” read 6.44% (healthy human, PBMC; oral, 15 mg single dose, day 2, 24 h post-dose, median, with: sodium arsenite ex vivo; baseline: baseline).
`CCOc1ccc2cc(-c3nn(CC4CCNCC4)c4ncnc(N)c34)ccc2c1`: “% of maximum PPE” 8.71% (Theileria equi; hydroethidine flow cytometry; USDA Florida; 12 µM, 72 h).
`Cc1[nH]c(C)c(-c2ccc(-c3ccc(Cl)cc3)nc2)c(=O)c1Cl` has an IC50 of 348 ± 164 nM (Plasmodium yoelii; 17XL; 384-well).
`C#CCCC(=O)SCCNC(=O)CCNC(=O)[C@H](O)C(C)(C)COP(=O)(O)OP(=O)(O)OC[C@H]1O[C@@H](n2cnc3c(N)ncnc32)[C@H](O)[C@@H]1OP(=O)(O)O` has a viability of 123% (HBL-1; 0.1 µM, 120 h).
For `Cc1[nH]c(C)c(-c2ccc(OCc3ccccc3)cc2)c(=O)c1Br`, the IC50 was 180 ± 70 nM (Plasmodium yoelii; 17XL; 384-well).
`OC(CCN1CCCCC1)(c1ccccc1)C1CC2C=CC1C2` (stereo not shown) — result for “change, theta power, EEG O1-Pz”: -15.2% (resting-state EEG; healthy elderly humans; oral, 2 mg, eyes closed, LS mean; baseline: baseline).
`O=C(Nc1cccc(C2=NCCN2)c1)Nc1cccc(C2=NCCN2)c1` gave an inhibition of 96.2% (Theileria equi; parasite growth, flow cytometry; horse erythrocytes, USDA Florida strain; 0.002688 µM, 72 h).
With `CCOC(=O)c1cn(CC)c2cc(N3CCCCCC3)c(F)cc2c1=O` the IC50 was 97 ± 14 nM (Plasmodium yoelii; 17XL; 384-well).
For `COc1cnc2cccc(N3CCc4c(cc(Cn5ccnc5C)cc4-c4cn(C)nc4C(F)(F)F)C3=O)c2c1`, the EC50 was 4690 nM (Huh-7; cell growth, inhibitor; 120 h).
The IC50 of `CCCCN1CC[C@@H](CCC(O)c2cc(OCCC)nc3ccc(OC)cc23)[C@@H](CC)C1` (stereo partly shown) is reported as over 20000 nM (Plasmodium yoelii; 17XL; 384-well).
For `C[C@H]1O[C@@H](O[C@H]2CC[C@@]3(C)[C@@H](CC[C@]4(C)[C@@H]3C=C[C@]35OC[C@@]6(CCC(C)(C)C[C@H]63)[C@@H](O)C[C@]54C)[C@]2(C)CO)[C@H](O)[C@@H](O[C@@H]2O[C@H](CO)[C@@H](O)[C@H](O)[C@H]2O)[C@H]1O`, the protein level was 0.814 and 0.601 and 0.785 (Western blot, item: PPARα; chronic-plus-binge ethanol-fed mice, liver; dose not given, medium dose, unit not given; baseline: β-actin).
With `Nc1nc(OCc2cc(Br)cs2)c2[nH]cnc2n1` the viability was 98.7% (HBL-1; 1 µM, 120 h).
For `O=C(O)CNC(=O)Cc1ccccc1`, the sarcomere length was 1.62 µm (ventricular cardiomyocytes, C57BL/6 mouse; dose not given, 0.204 s).
The IC50 of `Cc1[nH]c(C)c(-c2ccc(OCc3ccccc3C(F)(F)F)nc2)c(=O)c1Br` is reported as 46 ± 28 nM (Plasmodium yoelii; 17XL; 384-well).
`Cn1cc(-c2ccc(-c3cncc(Cl)c3N3CCC4(CCNC4=O)CC3)cc2)cn1`: “log2 fold change” 2.17 (COLO 205; gene expression, microarray, item: HMOX1 mRNA; concentration not given, 2 h; baseline: untreated cells).
`Cc1[nH]c(C)c(-c2ccc(OCc3ccc(F)cc3)cc2)c(=O)c1Br` gave an IC50 of 181 ± 70 nM (Plasmodium yoelii; 17XL; 384-well).
For `CC(C)NCC(O)c1ccc(O)c(O)c1` (stereo not shown), the sarcomere length was 1.72 µm (ventricular cardiomyocytes, C57BL/6 mouse; dose not given, 0.056 s).
For `CCOc1ccc2cc(-c3nn(CC4CCN(C)CC4)c4ncnc(N)c34)ccc2n1`, the EC50 was 6930 nM (Theileria equi; parasite growth, hydroethidine flow cytometry; USDA Florida; 72 h).
With `Cc1nc(C)c(-c2ccc(C(=O)c3ccccc3)cc2)c(O)c1Br` the IC50 was 425 ± 87 nM (Plasmodium yoelii; 17XL; 384-well).
The viability of `Cc1cn([C@H]2C[C@H](O)[C@@H](CO)O2)c(=O)nc1N` is reported as 128% (HBL-1; 0.5 µM, 120 h).
The IC50 of `Cc1[nH]cc(Br)c(=O)c1-c1ccc(Oc2ccc(OC(F)(F)F)cc2)cc1` is reported as 155 ± 3 nM (Plasmodium yoelii; 17XL; 384-well).
The parasitaemia reduction of `Cc1[nH]c(/C=C2\N=C(c3ccc[nH]3)C=C2OCc2ccccc2)cc1Cc1ccc(OC(F)(F)F)cc1` is reported as 97.6% (Plasmodium yoelii; CF1 mice; oral, 10 mg/kg daily for 4 days, day 5; baseline: vehicle).
With `CC(C)n1ncc2c(C(=O)NCC3(C)CNC3)cc(C3CC3)nc21` the EC50 was 250 nM (Enterovirus D68; cytopathic effect; RD, US/MO/14-18947).
The viability of `CCCCCCCCOC(=O)C(=O)CCC(=O)O` is reported as 118% (HBL-1; 0.5 µM, 120 h).
`Oc1ccccc1-c1n[nH]cc1-c1ccnc2ccccc12` — result for “log2 fold change”: 0.14 (ENV7 (Candida albicans); kinase binding, MIB/MS competition; Candida albicans lysate; 10 µM; baseline: DMSO).
The viability of `CCOC(=O)CCNc1cc(N2CCc3ccccc3CC2)nc(-c2ccccn2)n1` is reported as 102% (HBL-1; 1 µM, 120 h).
For `CCOc1ccc2cc(-c3nn(CC4CCN(C)CC4)c4ncnc(N)c34)ccc2c1`, “% of maximum PPE” read 73.3% (Theileria equi; hydroethidine flow cytometry; USDA Florida; 3 µM, 72 h).
With `Clc1ccc(N/N=C(\c2ccccc2)c2ccccn2)nc1` the viability was 5.58% (HBL-1; 0.5 µM, 120 h).
`COc1ccc(F)cc1C(=O)NCc1ccc(-c2nn([C@@H](C)C(F)(F)F)c(N)c2C(N)=O)cc1` gave an inhibition of 60.2% (MEK1/MEK2 human; probe binding, competitive chemoproteomics; human PBMCs; 10 µM).
The viability of `O=C(NCc1ccccc1)c1c(/N=C/c2c(O)ccc3ccccc23)sc2c1CCCC2` is reported as 120% (HBL-1; 0.5 µM, 120 h).
For `NC(=O)c1cnc2[nH]ccc2c1N[C@@H]1[C@@H]2CC3C[C@H]1C[C@@](O)(C3)C2`, the percent change was -0.38% (regulatory T cells, flow cytometry; Caucasian humans, peripheral blood; 60 mg single dose; baseline: baseline).
For `CN(C)c1ccc(C(=O)NCCCCCC(=O)NO)cc1`, the viability was 80.1% (HBL-1; 1 µM, 120 h).
Under “log2 fold change”, `c1coc(-c2n[nH]cc2-c2ccnc3ccccc23)c1` is recorded as -0.21 (ENV7 (Candida albicans); kinase binding, MIB/MS competition; Candida albicans lysate; 1 µM; baseline: DMSO).

Repeated from above:
For `CCOc1ccc2cc(-c3nn(CC4CCN(C)CC4)c4ncnc(N)c34)ccc2c1`, “% of maximum PPE” read 73.3% (Theileria equi; hydroethidine flow cytometry; USDA Florida; 3 µM, 72 h).
For `CCOc1ccc2cc(-c3nn(CC4CCN(C)CC4)c4ncnc(N)c34)ccc2n1`, the EC50 was 6930 nM (Theileria equi; parasite growth, hydroethidine flow cytometry; USDA Florida; 72 h).
